Results pooled from the literature.
Organism: Candida albicans

Compound	test	system	setting	MIC
N#CC(C#N)=C1SC(C(=O)c2ccc(Nc3cnccn3)cc2)=NN1c1ccc([N+](=O)[O-])cc1	broth microdilution	ATCC 10231	–	6.25 mg/L
C[C@@H]1[C@H](O)[C@@H](C)/C=C/C=C/C=C/C=C/C=C/C=C/C=C/[C@H](O[C@@H]2O[C@H](C)[C@@H](O)[C@H](N)[C@@H]2O)C[C@@H]2O[C@](O)(C[C@@H](O)C[C@@H](O)[C@H](O)CC[C@@H](O)C[C@@H](O)CC(=O)O[C@H]1C)C[C@H](O)[C@H]2C(=O)O	broth microdilution	ATCC 90029, RPMI-MOPS medium	24 h, pH 7.0, 35 °C, MIC at 90% growth inhibition, added: potentiator 0 µg/mL	1 mg/L
C[C@@H]1[C@H](O)[C@@H](C)/C=C/C=C/C=C/C=C/C=C/C=C/C=C/[C@H](O[C@@H]2O[C@H](C)[C@@H](O)[C@H](N)[C@@H]2O)C[C@@H]2O[C@](O)(C[C@@H](O)C[C@@H](O)[C@H](O)CC[C@@H](O)C[C@@H](O)CC(=O)O[C@H]1C)C[C@H](O)[C@H]2C(=O)O	–	alveolar fluid isolate, RPMI MOPS	48 h, 37 °C	1 µM
CCOC(=O)CON	–	CAF2-1	–	32 mg/L
OC(Cn1cncn1)(Cn1cncn1)c1ccc(F)cc1F	broth microdilution	BNCC 186382	–	4 mg/L
OC(Cn1cncn1)(Cn1cncn1)c1ccc(F)cc1F	broth microdilution	7	24 h, compound alone	4 mg/L
CCCCCOc1ccc(-c2ccc(-c3ccc(C(=O)N[C@H]4C[C@@H](O)[C@@H](OCC[N+](C)(C)C)NC(=O)[C@@H]5[C@@H](O)[C@@H](C)CN5C(=O)[C@H]([C@@H](C)O)NC(=O)[C@H]([C@H](O)[C@@H](O)c5ccc(O)cc5)NC(=O)[C@@H]5C[C@@H](O)CN5C(=O)[C@H]([C@@H](C)O)NC4=O)cc3)cc2)cc1	CLSI broth microdilution	580	–	0.016 mg/L
OC(Cn1cncn1)(Cn1cncn1)c1ccc(F)cc1F	–	SP3903, RPMI MOPS	48 h, 37 °C	32 µM
OC(Cn1cncn1)(Cn1cncn1)c1ccc(F)cc1F	–	ATCC 90029	24 h	12.5 mg/L
NOCC(=O)O	–	CAF2-1	–	1000 mg/L

Excerpt of the above:
Compound	test	system	setting	MIC
C[C@@H]1[C@H](O)[C@@H](C)/C=C/C=C/C=C/C=C/C=C/C=C/C=C/[C@H](O[C@@H]2O[C@H](C)[C@@H](O)[C@H](N)[C@@H]2O)C[C@@H]2O[C@](O)(C[C@@H](O)C[C@@H](O)[C@H](O)CC[C@@H](O)C[C@@H](O)CC(=O)O[C@H]1C)C[C@H](O)[C@H]2C(=O)O	–	alveolar fluid isolate, RPMI MOPS	48 h, 37 °C	1 µM
